Experimental data from different studies.
Protocols differ between the studies behind these lines. “And” joins repeats or separate records; there may be more than shown. Numbers after ± are the reported error.
Gria2: Glutamate receptor 2 (Gria2, Rattus norvegicus, UniProt P19491)
CASP7: Caspase-7 (CASP7, Homo sapiens, UniProt P55210)
T1: G-quadruplex DNA, G-quadruplex (Homo sapiens); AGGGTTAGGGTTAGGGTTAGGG

SMILES = COC(=O)Cc1cc2c(cc1C(=O)c1ccc(Cl)cc1Cl)OCO2; target = Gria2; assay = glutamate-evoked current, whole-cell patch clamp; test system = HEK-293T; conditions = concentration not given, weighted tau, 1 ms pulse, together with: glutamate; measurement = deactivation time constant; result = 3.6 ± 0.1 ms
SMILES = CC(=O)N(Cc1ccccc1)[C@@H](C)C(=O)N(C)[C@@H](C)C(=O)N(Cc1c[nH]c2ccccc12)[C@@H](C)C(=O)N(C)[C@@H](C)C(=O)N(CCC(C)C)[C@@H](C)C(N)=O; target = MDM2 (Homo sapiens, UniProt Q00987); assay = binding, fluorescence polarization competition; conditions = together with: fluorescent PMI peptide; measurement = Hill coefficient; result = 1.06 ± 0.05
SMILES = CC(C)Oc1cc(Cl)ccc1CNc1cc(-c2ccccc2)nc2ncnn12; target = GPR3 (Homo sapiens, UniProt P46089, L136A); assay = cAMP level, cAMP GloSensor; conditions = 300 nM; how to read = higher = more cAMP; measurement = cAMP luminescence; result = 47200 a.u. and 49800 a.u. and 36100 a.u. and 53400 a.u.
SMILES = O=C(O)Cc1cc2c(cc1C(=O)c1ccccc1I)OCO2; target = Gria2; assay = whole-cell patch clamp; test system = HEK-293T; conditions = concentration not given, together with: glutamate; measurement = deactivation time constant; result = 3.4 ± 0.3 ms
SMILES = Cc1cc(NC(=O)[C@H](O)c2cc(F)cc(F)c2)ccc1-c1cnc(N)c(C(=O)NC(C)C)c1; target = VRK2 (Homo sapiens, UniProt Q86Y07); assay = binding, competition with immobilised ligand; conditions = 0.1 µM; measurement = remaining binding; result = 65%
SMILES = CC(C)=CC1OC(C)(C)C2C=C3C(=O)C(Cl)=CC(O)C3C3C(O)C4OC4C(=O)C132 (stereo not drawn); target = Tyrosine-protein kinase ABL1, non-phosphorylated (ABL1, Homo sapiens, UniProt P00519, H396P); assay = cell-free assay, competition with immobilised ligand; conditions = 10 µM; measurement = remaining binding; result = 99%
SMILES = O=C(Nc1cccc(CO)c1)c1cc(-c2ccccc2)n(-c2ccccc2)n1; target = Genome polyprotein, NS2B-NS3 protease (dengue virus type 2, UniProt P29990); assay = reporter gene; test system = HeLa; conditions = 12.5 µM; measurement = inhibition; result = 55%
SMILES = C#CCCC1(CCC(=O)NCC2CN(CCCCCNC(=O)CN(CCN)C(=O)Cn3cnc4c(=O)[nH]c(N)nc43)CCN(CCCCCNC(=O)CN(CCN)C(=O)Cn3cnc4c(=O)[nH]c(N)nc43)CCN(CCCCCNC(=O)CN(CCN)C(=O)Cn3cnc4c(=O)[nH]c(N)nc43)CCN2CCCCCNC(=O)CN(CCN)C(=O)Cn2cnc3c(=O)[nH]c(N)nc32)N=N1 (stereo not drawn); target = T1, G-quadruplex DNA, G-quadruplex (Homo sapiens); assay = photo-cross-linking; measurement = binding; result = binds
SMILES = N#CN1CC[C@H](C(=O)Nc2nc3c(s2)CN(C(=O)Cn2cc(COCCOCCOCCOCCNC(=O)CCCC[C@@H]4SC[C@@H]5NC(=O)N[C@@H]54)nn2)CC3)C1; target = USP7 (Homo sapiens, UniProt Q93009); assay = probe binding, affinity probe, neutravidin pull-down LC-MS/MS; test system = HEK293T, cell lysate; conditions = 5 µM, 1 h, mean of three replicates, unit not given; how to read = higher = more pulled down; measurement = iBAQ abundance; result = 5.59e+06
SMILES = CC(=O)N[C@H](CCc1ccccc1)C(=O)N[C@@H](CCC(=O)O)C(=O)N[C@@H](CCC(N)=O)C(=O)N[C@@H](CC(=O)O)C(=O)COC(=O)c1c(C)cccc1C; target = CASP7; assay = enzyme activity, inhibitor; measurement = kinact/KI; result = 2800 M⁻¹ s⁻¹
SMILES = CCCCCC(O)/C=C/C=O (stereo not drawn); target = MTHFD1L (Homo sapiens, UniProt Q6UB35); assay = competitive isoTOP-ABPP; test system = Ramos soluble proteome; conditions = 100 µM, 60 min, together with: iodoacetamide probe; how to read = relative to: DMSO over compound-treated, higher = stronger cysteine blockade; measurement = isoTOP-ABPP competition ratio; result = 6.3
SMILES = CCCC[C@H](NC(=O)[C@H](CC(=O)O)NC(C)=O)C(=O)N[C@H](C(=O)N[C@@H](CC(=O)O)C(=O)COC(=O)c1c(C)cccc1C)[C@@H](C)OCc1ccccc1; target = CASP7; assay = enzyme activity, inhibitor; measurement = kinact/KI; result = 938000 M⁻¹ s⁻¹
SMILES = C=CC(=O)N1CCCC(n2c(=O)c3ncccc3n(Cc3ccc(Oc4ccccc4)cc3)c2=O)C1 (stereo not drawn); target = Sorting nexin-6 (SNX6, Homo sapiens, UniProt Q9UNH7); assay = thermal proteome profiling, measured: SNX6; conditions = treated; measurement = melting temperature; result = 50.8 °C and 44.3 °C
SMILES = CCOC(=O)C(CC)(CCCSCCOCCOCCNC(=O)OC(C)(C)C)NC(=O)c1ccc(C2CC2)c(Cc2ccc(F)cc2)n1 (racemic); target = CNR2 (Homo sapiens, UniProt P34972); assay = cAMP, agonist; measurement = Emax; result = 93%
SMILES = Cc1ccc(-c2c[nH]nc2C(=O)Nc2cccnc2)c(C)c1; target = human kinase panel; assay = binding, KINOMEscan; conditions = 10000 nM, %Ctrl below 10; measurement = number of kinases hit; result = 1

Some of these lines once more:
SMILES = CCCCCC(O)/C=C/C=O (stereo not drawn); target = MTHFD1L (Homo sapiens, UniProt Q6UB35); assay = competitive isoTOP-ABPP; test system = Ramos soluble proteome; conditions = 100 µM, 60 min, together with: iodoacetamide probe; how to read = relative to: DMSO over compound-treated, higher = stronger cysteine blockade; measurement = isoTOP-ABPP competition ratio; result = 6.3
SMILES = CCCC[C@H](NC(=O)[C@H](CC(=O)O)NC(C)=O)C(=O)N[C@H](C(=O)N[C@@H](CC(=O)O)C(=O)COC(=O)c1c(C)cccc1C)[C@@H](C)OCc1ccccc1; target = CASP7; assay = enzyme activity, inhibitor; measurement = kinact/KI; result = 938000 M⁻¹ s⁻¹
